# Published values collected from several papers.
# Lines come from different studies, so protocols differ. Numbers after ± are the reported error.
# Cell line: PC-3
SMILES,test,conditions,IC50 [µM]
C=CCc1ccc(OCc2nnc(SCC(=O)N3CCOCC3)o2)c(OC)c1,"cell growth or viability, MTT",72 h,20.3
N#CC(C(=O)Nc1nnc(NC(=O)c2ccccc2)s1)C(=S)Nc1ccccc1 (centres unmarked),"cell growth or viability, MTT",48 h,28.8
COc1cccc2cc(C=C3C(=O)Nc4ccccc43)c(Cl)nc12,"cell growth or viability, MTT",72 h,> 100
C[C@]1([N+](=O)[O-])C(=O)c2ccccc2O[C@@H]1CC(=O)Nc1ccccc1,"cell growth or viability, SRB",96 h,6.44
CCOc1ccc2c(C)c(CC)c(=O)oc2c1C,"cell growth or viability, MTT",,> 50
C#CCNC(=O)C[C@H]1Oc2ccccc2C(=O)[C@]1(C)[N+](=O)[O-],"cell growth or viability, SRB",96 h,13
Cc1c(Cc2ccccc2)c(=O)oc2c(C)c(OCC(=O)NN=Cc3ccccc3)ccc12,"cell growth or viability, MTT",,37.6
CN1CCC2(CC1)C/C(=N\N=C\c1ccc(Cl)cc1)c1ccccc1O2,"cell growth or viability, MTT",48 h,12.7
COC(=O)c1c(-c2ccc(O)c(OC)c2)c2n(c1C(=O)OC)CCn1cccc1-2,"cell growth or viability, MTT",48 h,47.7
CN(C)C/C=C/C(=O)Nc1cc2c(Nc3ccc(F)c(Cl)c3)ncnc2cc1O[C@H]1CCOC1,"cell growth or viability, MTT",48 h,7.98
C=CCc1ccc(OCc2nn(CN3CCCCC3)c(=S)o2)c(OC)c1,"cell growth or viability, MTT",72 h,26.7
C=CCOc1ccc2c(C)c(CC)c(=O)oc2c1C,"cell growth or viability, MTT",,> 50
O=C1Nc2ccccc2C1=Cc1cc2ccc3ccccc3c2nc1Cl,"cell growth or viability, MTT",72 h,> 100
Nc1nnc(NC(=O)c2ccccc2)s1,"cell growth or viability, MTT",48 h,30
C[C@]1([N+](=O)[O-])C(=O)c2ccccc2O[C@@H]1CC(=O)Nc1ccc2[nH]ccc2c1,"cell growth or viability, SRB",96 h,15.8
C=CCc1ccc(OCc2nnc(SCC(=O)N3CCCCC3)o2)c(OC)c1,"cell growth or viability, MTT",72 h,125
COc1cc2cc(C=C3C(=O)Nc4ccccc43)c(Cl)nc2cc1OC,"cell growth or viability, MTT",72 h,> 100
Cc1c(Cc2ccccc2)c(=O)oc2c(C)c(OCC(=O)NN=Cc3ccco3)ccc12,"cell growth or viability, MTT",,8.99
COc1cc([C@@H]2c3cc4c(cc3[C@@H](O[C@@H]3O[C@@H]5CO[C@@H](C)O[C@H]5[C@H](O)[C@H]3O)[C@H]3COC(=O)[C@H]23)OCO4)cc(OC)c1O,"cell growth or viability, MTT",48 h,32.1
C[C@]1([N+](=O)[O-])C(=O)c2c(F)cccc2O[C@@H]1CC(=O)NC12CC3CC(CC(C3)C1)C2,"cell growth or viability, SRB",96 h,2.91
Cc1cc(-c2ccccc2)n(-c2nnc(NC(=O)c3ccccc3)s2)c(=O)c1C#N,"cell growth or viability, MTT",48 h,86.5
C[C@]1([N+](=O)[O-])C(=O)c2cc(Cl)ccc2O[C@@H]1CC(=O)NC12CC3CC(CC(C3)C1)C2,"cell growth or viability, SRB",96 h,3.07
Cc1ccc2nc(Cl)c(C=C3C(=O)Nc4ccccc43)cc2c1,"cell growth or viability, MTT",72 h,> 100
C[C@]1([N+](=O)[O-])C(=O)c2cc(F)ccc2O[C@@H]1CC(=O)NC12CC3CC(CC(C3)C1)C2,"cell growth or viability, SRB",96 h,0.94
COC(=O)c1c(-c2cccc(Cl)c2)c2n(c1C(=O)OC)CCn1cccc1-2,"cell growth or viability, MTT",48 h,67.2
COc1ccc(-c2cc(-c3ccc4ccccc4c3)c3c(=O)[nH]c(=O)[nH]c3n2)cc1,"cell growth or viability, MTT",48 h,< 5
N#Cc1c(Nc2ccccc2)n2nc(NC(=O)c3ccccc3)sc2nc1=O,"cell growth or viability, MTT",48 h,10.5
CCc1c(C)c2ccc(OCC(=O)NNC(=S)Nc3ccccc3)c(C)c2oc1=O,"cell growth or viability, MTT",,> 50
COC(=O)c1c(-c2ccccc2)c2n(c1C(=O)OC)CCn1cccc1-2,"cell growth or viability, MTT",48 h,78.9
N#CC(C(=O)Nc1nnc(NC(=O)c2ccccc2)s1)=C1SCCN1c1ccccc1,"cell growth or viability, MTT",48 h,92.3
C#CCOC(=O)C[C@H]1Oc2ccccc2C(=O)[C@]1(C)[N+](=O)[O-],"cell growth or viability, SRB",96 h,26.2
N=c1oc2ccccc2cc1C(=O)Nc1nnc(NC(=O)c2ccccc2)s1,"cell growth or viability, MTT",48 h,21
Cc1ccccc1-c1c2n(c3c(=O)[nH]nc(O)c13)CCn1cccc1-2,"cell growth or viability, MTT",48 h,65.3
CC(=O)O[C@@]12CO[C@@H]1C[C@H](O)[C@@]1(C)C(=O)[C@H](O)C3=C(C)[C@@H](OC(=O)[C@H](O)[C@@H](NC(=O)OC(C)(C)C)c4ccccc4)C[C@@](O)([C@@H](OC(=O)c4ccccc4)[C@H]21)C3(C)C,"cell growth or viability, SRB",96 h,0.013
COC(=O)c1c(-c2ccccc2C)c2n(c1C(=O)OC)CCn1cccc1-2,"cell growth or viability, MTT",48 h,64.8
N#CC(=Cc1ccc(Cl)cc1Cl)C(=O)Nc1nnc(NC(=O)c2ccccc2)s1,"cell growth or viability, MTT",48 h,9.1
C=CCc1ccc(OCc2nn(CN3CCCC3)c(=S)o2)c(OC)c1,"cell growth or viability, MTT",72 h,10
C#Cc1cccc(Nc2ncnc3cc(OCCOC)c(OCCOC)cc23)c1,"cell growth or viability, MTT",,12.3
COC(=O)c1c(-c2ccc(Cl)cc2)c2n(c1C(=O)OC)CCn1cccc1-2,"cell growth or viability, MTT",48 h,83.3
N#CC(C(=O)Nc1nnc(NC(=O)c2ccccc2)s1)=C1SC(=O)CN1c1ccccc1,"cell growth or viability, MTT",48 h,> 100
CCc1c(C)c2ccc(OCC=Cc3ccccc3)c(C)c2oc1=O,"cell growth or viability, MTT",,> 50
O=c1[nH]nc(O)c2c(-c3cccc([N+](=O)[O-])c3)c3n(c12)CCn1cccc1-3,"cell proliferation, MTT",48 h,17.66 ± 0.012
Cc1c(Cc2ccccc2)c(=O)oc2c(C)c(OCC(=O)NN=Cc3ccc([N+](=O)[O-])cc3)ccc12,,,12.1
CCN1CCC2(CC1)C/C(=N\N=C\c1ccc(N(C)C)cc1)c1ccccc1O2,"cell growth or viability, MTT",48 h,55

# A few entries again:
SMILES,test,conditions,IC50 [µM]
CN(C)C/C=C/C(=O)Nc1cc2c(Nc3ccc(F)c(Cl)c3)ncnc2cc1O[C@H]1CCOC1,"cell growth or viability, MTT",48 h,7.98
O=C1Nc2ccccc2C1=Cc1cc2ccc3ccccc3c2nc1Cl,"cell growth or viability, MTT",72 h,> 100
COc1cc([C@@H]2c3cc4c(cc3[C@@H](O[C@@H]3O[C@@H]5CO[C@@H](C)O[C@H]5[C@H](O)[C@H]3O)[C@H]3COC(=O)[C@H]23)OCO4)cc(OC)c1O,"cell growth or viability, MTT",48 h,32.1
C#CCNC(=O)C[C@H]1Oc2ccccc2C(=O)[C@]1(C)[N+](=O)[O-],"cell growth or viability, SRB",96 h,13
C[C@]1([N+](=O)[O-])C(=O)c2cc(F)ccc2O[C@@H]1CC(=O)NC12CC3CC(CC(C3)C1)C2,"cell growth or viability, SRB",96 h,0.94
